Measurements collected from several papers.
Numbered parts are unrelated; each lists some results of a single study.

Series 1
Target: PABPC1L2, full length, GST fusion (mouse, UniProt A0ABA7IW68)
Method: RNAcompete
Form: RNA
Medium: in vitro
Concentration: 20 nM
Notes: 7-mer, probes averaged, single round
Baseline: mean of 7-mers
Reading: higher = stronger binding
Quantity: 7-mer Z-score
Residues (chain): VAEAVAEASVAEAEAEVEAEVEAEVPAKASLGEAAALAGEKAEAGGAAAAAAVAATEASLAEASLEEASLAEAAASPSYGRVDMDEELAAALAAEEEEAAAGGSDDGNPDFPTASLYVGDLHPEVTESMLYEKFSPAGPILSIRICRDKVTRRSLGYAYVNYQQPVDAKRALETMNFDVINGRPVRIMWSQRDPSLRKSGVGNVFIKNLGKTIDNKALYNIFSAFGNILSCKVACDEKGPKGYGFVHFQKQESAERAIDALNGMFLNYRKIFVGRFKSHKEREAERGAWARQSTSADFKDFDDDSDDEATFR
UAUCACC: -0.284
AGUGGGU: 0.0768
GGCCGAU: -0.0446
GUGUGAU: -0.211
GAUCUUC: -0.284
CCGUAAG: -0.362
UCCUUGU: -0.382
GCUAAAC: 0.367
GACCCCC: -0.494
CGAGUUG: -0.213
GCUCCUA: -0.22
CCGCCGG: -0.528
CAACCUU: -0.157
GAGGUCG: -0.132
GAAGGAA: 0.166
CAUGUCA: -0.135
CAAGAGG: 0.291
GGGGGAU: 0.432
CAGUCUC: -0.0663
CCCCUAC: -0.394
GUGUACA: 0.0841
CUUCUUC: -0.458
UACUUAA: 0.111
GAAUUUC: -0.373

Series 2
Target: RNA binding protein fox-1 homolog 2, RRM domain, GST-SBP tag (RBFOX2, Homo sapiens, UniProt O43251-10, residues 100-194)
Method: RNA Bind-n-Seq
Form: RNA
Medium: in vitro
Concentration: 365 nM
Notes: natural RNA segment, single round, ends assumed
Baseline: no-protein control
Reading: higher = stronger binding
Quantity: RBNS enrichment (R)
All sequences stand within: GGGAGUUCUACAGUCCGACGAUC … UGGAAUUCUCGGGUGCCAA
Residues (chain): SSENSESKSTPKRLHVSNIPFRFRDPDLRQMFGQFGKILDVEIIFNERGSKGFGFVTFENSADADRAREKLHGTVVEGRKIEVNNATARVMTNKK
CCUGAGAAUGUAAAAUAGGGCAGUGCCCAGCUGGGGAGGUAGAGGAAAGUGCUAGAGUACAUGGUCCGUGUGUGGCCUAGCUCAUUCCAUGUCAGCAUUUGGUGUUACUC: 2.21
UGCUGGGCUCAUCCUGUCUCCCCUGACAACUGUGACUUCUCCUGGAGAGGCCUGUGCACUGCUGAAGUUCUUGCUGAUGAUUCUAGCUGUAAACCUUUGUUGCCGCCGCA: 1.39
CUUCAGUGUGGCAAAGGAGUAGUGUAGUUCCCUCCACAGGCCCUGUCGUAAUAAAAGCCUCAGUGCAGCUUCUUCCUGCAGUUCACAUCUUGAUGCUAGGAUGCUCCUGG: 0.348
GGCAUGCGUACAUGUCAGGUGUUGUUUGAGGUAAAUGAGCACUUCUCACUAAGCUUCGUGUAUAAAUGGAAUACAUUAUUUUUCAAACAAACGAAUAAAUGGCUUACAUG: 0.301
CCAGCGCCUGCCAGCCCCAGAUGAGAAGAUUGAGCUUCCACAUCAGACCCCAUACCCGCCCUUGAGUCUGUUUGCAAUUCCUGGGAUCAGGCCCACUCCAGGAGGUGGGC: 0.77
AGAAAAUAUUGCACAAAGGUUUCCCUCAGGAAACCUAGUGCAGAUAGCCAUGGAAGCAUAGCCACUGGAAAGGAACAGUGCAUGAGGCAGAUGUUCGUUUCUGGUGGAAA: 0.85
CCUGGGAAUGUGUCCUCAUCACUUUAAUUGCAGAGUUACUGGGAAAUCAUUGUGCUACUCUGUGGAUGAGGGUUCAUUCUUAUGUAUGUUCAGAUGUCAUGUGCUGUCUA: 0.819
UGUACUCCCCUUUGCUCCAUCAGUUAUCAGGAAGGAGAACUAAGGAGGGAGGAAGCUUAUUAGGUUCACUGUUGAAUGAUGAUUGAAGAGUACCUGCUGCUGUAUCUUGG: 1.5
UCCUUGCCAGCACCUCUUUCUCUGCCCAAUUGAGGGGAACAAAAGGGUGUUCACAGAUGGAGCGAGCUUGCAGCCGCGUGGCUGUGCUGCUCUGUGAGAAGGCGUGCCAG: 1.03
CAGGAAUUUUAUCAGGAUACUUAUGGGCAACAGUGGAAGUAGACAAGUAAGGGCUUGAAAAUGAUACUGGCAAGAUACGAUUGGCUCUAGAUCUACAUUCUUCAAAAAAA: 0.528
AUUGUAAAGUGUACUCUAGAGCCAGAUCAGGUGCACUAAAGUUUAUAGAGGUUCCAGUUUACAAACUCAAGUGAACAGUAAUCUUUGGAAGCUGCCAGUCUAAAUUCUAA: 0.399
CAGCUUCUAGCUGGUUCUCUAUUAUCCUGGUAAUAUUGUUUCUCAGCUCUGAAAUUUGAAAGUCUACGAAGAAAGCCUGGGUUCAUCAGCUGCCCAGCCCCACCUCUCCA: 0.189

Series 3
Target: Ras GTPase-activating protein-binding protein 1, RRM domain (G3BP1, Homo sapiens, UniProt Q13283)
Sequence of UniProt Q13283 (whole entry, looked up): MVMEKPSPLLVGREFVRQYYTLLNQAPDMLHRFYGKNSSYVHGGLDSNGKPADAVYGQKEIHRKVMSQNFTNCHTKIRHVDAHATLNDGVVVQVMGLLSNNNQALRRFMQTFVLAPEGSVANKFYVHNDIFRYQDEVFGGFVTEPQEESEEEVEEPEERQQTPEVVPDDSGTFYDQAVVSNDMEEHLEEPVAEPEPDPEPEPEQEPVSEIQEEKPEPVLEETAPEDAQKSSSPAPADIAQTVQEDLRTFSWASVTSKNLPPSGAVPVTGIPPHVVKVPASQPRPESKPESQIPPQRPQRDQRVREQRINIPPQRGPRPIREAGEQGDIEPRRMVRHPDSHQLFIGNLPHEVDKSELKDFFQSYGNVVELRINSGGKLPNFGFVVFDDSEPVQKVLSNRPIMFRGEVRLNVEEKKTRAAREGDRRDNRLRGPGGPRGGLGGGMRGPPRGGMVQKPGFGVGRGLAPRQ
Method: RNA Bind-n-Seq
Form: RNA
Medium: in vitro
Concentration: 1 µM
Notes: whole 134-nt RNA, ends assumed
Added: 150 mM KCl
Baseline: input library
Reading: higher = stronger binding
Quantity: log2 enrichment
All sequences stand within: GGGAGUUCUACAGUCCGACGAUC … UGGAAUUCUCGGGUGUCAAGG
GCAGGAAGUAAAAACAAAUGGAAAUGCUUCGGAUAGUGGCAGGGGUGGGGGUUGCUAAGGAAAGGGUGGGAUAAAAGUGGGUAAAGAGUU: 0.955
GUCCUGUGCUACACAUCGUAUGUACCGAAUCGGGAAAAAAAGGGUUUUUUUGGGUGGGAAAGUAUUAUGUUACGCCGUUCGGAUCUGCAC: 0.39
AGUCCUGUGCUACACAUCGUAUGUACCGAAUCGGAAAAAGGUUUUUUUGGAAAAAGGAAAGUAUUAUGUUACGCCGUUCGGAUCUGCACU: -0.376
AGUCCUGUGCUACACAUCGUAUGUACCGAAUCAAAUUUUUAAAUUUUUAAAUUUAAAAAAGUAUUAUGUUACGCCGUUCGGAUCUGCACU: -0.992
ACCAUGCAGGUGGGCAUCUUUGGGAAGUGGGGCAAGGGGGGGAUAGGGAGGGGGGUAACACUUUGGGAACAGGUGGUCCCAGGUCGUUUG: 0.923
UCAAGUCCUGUGCUACACAUCGUAUGUACCGAAUCGGUUUGGUGGAAAAAAAGGAAAGUAUUAUGUUACGCCGUUCGGAUCUGCACUUCC: -0.109
CCUGUGCUACACAUCGUAUGUACCGAAUCGGGGUGGGGAAAAAAAGGGGAAAAAAAGGGGAAAGUAUUAUGUUACGCCGUUCGGAUCUGC: 0.505
CUGUGCUACACAUCGUAUGUACCGAAUCGGGGCCCCCCCGGGCCCCCCCGGGCCCCCCCGGGAAAGUAUUAUGUUACGCCGUUCGGAUCU: -0.61
CUCAAGUCCUGUGCUACACAUCGUAUGUACCGAAUCGGGAGGGGAGGGAGGGGAAAGUAUUAUGUUACGCCGUUCGGAUCUGCACUUCCA: 1.43
UAAAUUUAGAGGAGGAUCUGAUGGAUAUGGCAGUGGACGUGGAUUUGGGGAUGGCUAUAAUGGGUAUGGAGGAGGACCUGGAGGUGGCAA: -0.591
UGCUCUCCGUGCCACAUGCGCCCGCAGGUUACGCCAAGGAGGCCCUGAAUCUGGCGCAGAUGCAGGAGCAGACGCUGCAGUUGGAGCAAC: -0.515
UGGGAGGUGGAUUUUGUUUAUUUUUUUAGCUCAUUUCCAGGGGUGGGAAUUUUUUUUUAAUAUGUGUCAUGCAUAAAGUUGUUUUUGAAA: 1.7
ACCAUGCAGGUGGGAAACUUUGGGAAGUGGGGCAAGGGGGGGAUAGGGAGGGGGGUAACACUUUGGGAACAGGUGGUCCCAGGUCGUUUC: -0.301
ACCAUGCAGGUGGGCAUCUUUGGGAAGUGGGGCAAGGGGGGGAUAGCGAGGGGGGUAACACUUUGGGAACAGGUGGUCCCAGGUCGUUUC: 0.783

Series 4
Target: Histone acetyltransferase KAT6A, both winged helices, GST fusion (KAT6A, Homo sapiens, UniProt Q92794, residues 1-181)
Method: protein binding microarray
Form: double-stranded DNA, one strand shown
Medium: in vitro
Concentration: not given
Notes: 8-mer, flanks averaged, mean of 2 arrays, mostly near background
Baseline: not given
Reading: higher = stronger binding
Quantity: E-score
Construct (chain): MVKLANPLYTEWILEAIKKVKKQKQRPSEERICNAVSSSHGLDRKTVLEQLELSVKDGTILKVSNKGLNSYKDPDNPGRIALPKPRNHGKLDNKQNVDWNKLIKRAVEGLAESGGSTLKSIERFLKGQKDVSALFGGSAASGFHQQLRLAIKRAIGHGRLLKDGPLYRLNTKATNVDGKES
CTCTTCTA: 0.027
GCACACAA: -0.0722
CCCCTGAA: -0.117
ATAAAACC: 0.0269
ATGCCACA: -0.257
GTTTGTGA: -0.0401
GGGTCACA: -0.184
CTACGGTA: 0.0563
CGCTGCCA: 0.0438
ACTGTGAA: -0.0682
ACCATCCG: 0.0438
AAGAAAGA: -0.116
ATTAACTC: -0.0851
CCATCGTC: -0.102
GTGCTGGA: -0.0706
AAGGATTC: -0.11
AAAATCTC: -0.191

Series 5
Target: Interferon regulatory factor 7, full length, phosphomimetic (IRF7, Homo sapiens, UniProt Q92985, residues 1-503, S471D/S472D/S475D/S476D/S477D/S483D/S484D/S487D)
Method: protein-binding microarray
Form: double-stranded DNA, one strand shown
Medium: in vitro
Concentration: 2200 nM top
Notes: 60-bp whole probe
Added: salmon DNA 0.4 mg/ml
Baseline: random background probes
Reading: higher = stronger binding
Quantity: fitted relative affinity
All sequences stand within: GCCTAGCAC … GTCTTGATTCGCTTGACGCTGCTG
Construct (chain): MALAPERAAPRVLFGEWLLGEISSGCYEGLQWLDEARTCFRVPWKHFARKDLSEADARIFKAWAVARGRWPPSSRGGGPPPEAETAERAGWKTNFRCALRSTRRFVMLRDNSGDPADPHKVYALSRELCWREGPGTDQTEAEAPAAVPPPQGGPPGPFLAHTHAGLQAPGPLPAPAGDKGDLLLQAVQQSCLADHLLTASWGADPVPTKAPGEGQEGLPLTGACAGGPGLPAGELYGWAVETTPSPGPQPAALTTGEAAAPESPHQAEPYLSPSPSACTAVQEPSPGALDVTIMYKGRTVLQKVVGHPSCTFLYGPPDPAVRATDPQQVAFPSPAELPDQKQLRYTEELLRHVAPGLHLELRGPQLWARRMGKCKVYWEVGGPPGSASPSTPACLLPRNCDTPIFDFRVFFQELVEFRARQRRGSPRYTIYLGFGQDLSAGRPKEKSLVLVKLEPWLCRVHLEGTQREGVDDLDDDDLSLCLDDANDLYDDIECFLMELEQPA
TTACGTATCCTTCTCCTTTAGTGCTAG: 2.86 z-score
AGAGATGTGGGACTCACCTAGTGCTAG: -0.365 z-score
TTAGGCTTCGGACTGGGTTAGTGCTAG: -0.479 z-score
GACGGCCTGGACTTTCGGGACGTGCTA: 1.92 z-score
GACGATTTCGCGTATCGAGACGTGCTA: 1.45 z-score
TCACGTCTGAGCTCCGTACTGTGCTAG: 0.976 z-score
TCAGGACTGACTCTTCAGACTGTGCTA: -0.339 z-score
GACGGACTGCTACTGCAGACGTGCTAG: -0.616 z-score
TCAATTTTCGTTTTGTGACTGTGCTAG: 12.8 z-score
GACGGACTGGGATATCGGGACGTGCTA: -0.967 z-score
GACTGACTGGGGACTGGGGACGTGCTA: -0.41 z-score
TTAGGACTGGACTATCGGTAAGTGCTA: -0.637 z-score
CTTGCTTTATGTGTAGGTCTGTGCTAG: 1.06 z-score
TTTTTTCTTTTATTAGTGACGTGCTAG: 3.2 z-score
GATGGTCTCCTTATCCTGACGTGCTAG: 1.19 z-score
TCATTTCTCTTTCACTGACTGTGCTAG: 3.95 z-score
TTAGTTCTGAGTCTTCCCTTGTGCTAG: 0.951 z-score

For quick reference, copied from above (series 5):
TTACGTATCCTTCTCCTTTAGTGCTAG: 2.86 z-score
AGAGATGTGGGACTCACCTAGTGCTAG: -0.365 z-score
TTAGGCTTCGGACTGGGTTAGTGCTAG: -0.479 z-score
GACGGCCTGGACTTTCGGGACGTGCTA: 1.92 z-score
GACGATTTCGCGTATCGAGACGTGCTA: 1.45 z-score
TCACGTCTGAGCTCCGTACTGTGCTAG: 0.976 z-score
TCAGGACTGACTCTTCAGACTGTGCTA: -0.339 z-score
GACGGACTGCTACTGCAGACGTGCTAG: -0.616 z-score
TCAATTTTCGTTTTGTGACTGTGCTAG: 12.8 z-score
GACGGACTGGGATATCGGGACGTGCTA: -0.967 z-score
GACTGACTGGGGACTGGGGACGTGCTA: -0.41 z-score
TTAGGACTGGACTATCGGTAAGTGCTA: -0.637 z-score
CTTGCTTTATGTGTAGGTCTGTGCTAG: 1.06 z-score
TTTTTTCTTTTATTAGTGACGTGCTAG: 3.2 z-score
